# Measurements of several laboratories.
# Each line is one published result; not all experiments were run side by side. “And” joins repeats or separate records; there may be more than shown. ± gives the spread as reported.
# P4HB: Protein disulfide-isomerase (P4HB, Homo sapiens, UniProt P07237)
# Sequence of UniProt P07237 (whole entry, looked up): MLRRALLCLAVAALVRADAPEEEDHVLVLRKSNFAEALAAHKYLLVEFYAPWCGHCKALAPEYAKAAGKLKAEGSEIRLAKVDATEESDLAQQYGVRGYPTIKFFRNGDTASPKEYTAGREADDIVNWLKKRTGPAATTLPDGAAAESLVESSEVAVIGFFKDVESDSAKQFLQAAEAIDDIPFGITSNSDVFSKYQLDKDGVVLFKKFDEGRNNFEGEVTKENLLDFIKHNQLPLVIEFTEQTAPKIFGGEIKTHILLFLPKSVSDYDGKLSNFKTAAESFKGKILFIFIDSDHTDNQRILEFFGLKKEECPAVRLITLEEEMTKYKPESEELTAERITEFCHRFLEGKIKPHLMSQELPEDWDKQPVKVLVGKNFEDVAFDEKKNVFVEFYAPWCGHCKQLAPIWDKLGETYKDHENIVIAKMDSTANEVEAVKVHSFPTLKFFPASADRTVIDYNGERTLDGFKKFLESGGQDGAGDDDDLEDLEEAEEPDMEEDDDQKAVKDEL
# DRD1: D(1A) dopamine receptor (DRD1, Homo sapiens, UniProt P21728)
# Sequence of UniProt P21728 (whole entry, looked up): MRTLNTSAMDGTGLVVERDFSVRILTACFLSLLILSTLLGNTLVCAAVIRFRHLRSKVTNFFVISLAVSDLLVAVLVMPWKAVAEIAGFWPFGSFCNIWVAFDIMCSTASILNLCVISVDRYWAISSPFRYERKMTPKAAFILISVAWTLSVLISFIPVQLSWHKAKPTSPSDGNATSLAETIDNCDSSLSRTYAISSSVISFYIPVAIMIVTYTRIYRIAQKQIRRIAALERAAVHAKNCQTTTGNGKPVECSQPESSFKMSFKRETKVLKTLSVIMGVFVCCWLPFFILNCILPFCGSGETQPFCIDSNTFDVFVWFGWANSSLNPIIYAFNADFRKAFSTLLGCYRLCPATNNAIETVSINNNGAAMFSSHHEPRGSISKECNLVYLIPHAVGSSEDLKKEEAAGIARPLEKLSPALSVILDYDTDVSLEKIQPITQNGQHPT
# Adhesin FmlH lectin domain: Adhesin FmlH, lectin domain (Escherichia coli, UniProt Q1RBS0)
# Luciferin 4-monooxygenase: Luciferin 4-monooxygenase (Photinus pyralis, UniProt P08659)
# Sequence of UniProt P08659 (whole entry, looked up): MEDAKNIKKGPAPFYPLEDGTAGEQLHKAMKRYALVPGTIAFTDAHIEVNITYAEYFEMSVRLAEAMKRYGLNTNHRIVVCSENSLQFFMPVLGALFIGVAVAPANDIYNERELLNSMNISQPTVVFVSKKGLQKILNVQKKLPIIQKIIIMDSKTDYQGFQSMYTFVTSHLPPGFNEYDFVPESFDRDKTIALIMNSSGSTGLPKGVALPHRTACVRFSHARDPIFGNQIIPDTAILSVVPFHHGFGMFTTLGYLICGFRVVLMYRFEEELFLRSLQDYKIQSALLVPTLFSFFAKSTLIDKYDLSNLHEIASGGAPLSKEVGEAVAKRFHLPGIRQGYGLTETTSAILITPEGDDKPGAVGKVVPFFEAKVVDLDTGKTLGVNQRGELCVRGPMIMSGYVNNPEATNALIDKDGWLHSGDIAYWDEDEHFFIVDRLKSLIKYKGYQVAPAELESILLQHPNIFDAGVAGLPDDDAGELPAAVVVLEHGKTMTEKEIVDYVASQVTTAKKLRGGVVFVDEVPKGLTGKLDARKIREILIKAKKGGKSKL
# HTR1E: 5-hydroxytryptamine receptor 1E (HTR1E, Homo sapiens, UniProt P28566)
# Sequence of UniProt P28566 (whole entry, looked up): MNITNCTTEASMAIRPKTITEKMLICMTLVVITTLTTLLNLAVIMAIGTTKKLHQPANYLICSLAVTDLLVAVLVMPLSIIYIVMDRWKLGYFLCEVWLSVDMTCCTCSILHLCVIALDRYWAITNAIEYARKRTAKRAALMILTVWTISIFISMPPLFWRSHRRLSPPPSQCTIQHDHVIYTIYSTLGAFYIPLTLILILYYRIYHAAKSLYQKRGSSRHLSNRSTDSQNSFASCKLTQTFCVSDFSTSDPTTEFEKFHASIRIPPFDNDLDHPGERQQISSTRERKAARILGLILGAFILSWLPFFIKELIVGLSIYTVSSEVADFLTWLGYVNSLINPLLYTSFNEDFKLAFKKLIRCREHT
# Palmitoyl-protein thioesterase 1: Palmitoyl-protein thioesterase 1 (Homo sapiens, UniProt P50897)
# Sequence of UniProt P50897 (whole entry, looked up): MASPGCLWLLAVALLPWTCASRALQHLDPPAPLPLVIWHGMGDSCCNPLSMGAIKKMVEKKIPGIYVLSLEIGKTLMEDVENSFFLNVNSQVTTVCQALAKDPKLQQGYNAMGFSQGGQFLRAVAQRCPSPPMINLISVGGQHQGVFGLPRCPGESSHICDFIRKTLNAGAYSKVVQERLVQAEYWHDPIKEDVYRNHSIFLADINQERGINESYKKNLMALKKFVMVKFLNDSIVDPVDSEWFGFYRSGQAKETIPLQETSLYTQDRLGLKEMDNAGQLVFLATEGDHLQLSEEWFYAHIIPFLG
# MAP3K2: Mitogen-activated protein kinase kinase kinase 2 (MAP3K2, Homo sapiens, UniProt Q9Y2U5)
# Sequence of UniProt Q9Y2U5 (whole entry, looked up): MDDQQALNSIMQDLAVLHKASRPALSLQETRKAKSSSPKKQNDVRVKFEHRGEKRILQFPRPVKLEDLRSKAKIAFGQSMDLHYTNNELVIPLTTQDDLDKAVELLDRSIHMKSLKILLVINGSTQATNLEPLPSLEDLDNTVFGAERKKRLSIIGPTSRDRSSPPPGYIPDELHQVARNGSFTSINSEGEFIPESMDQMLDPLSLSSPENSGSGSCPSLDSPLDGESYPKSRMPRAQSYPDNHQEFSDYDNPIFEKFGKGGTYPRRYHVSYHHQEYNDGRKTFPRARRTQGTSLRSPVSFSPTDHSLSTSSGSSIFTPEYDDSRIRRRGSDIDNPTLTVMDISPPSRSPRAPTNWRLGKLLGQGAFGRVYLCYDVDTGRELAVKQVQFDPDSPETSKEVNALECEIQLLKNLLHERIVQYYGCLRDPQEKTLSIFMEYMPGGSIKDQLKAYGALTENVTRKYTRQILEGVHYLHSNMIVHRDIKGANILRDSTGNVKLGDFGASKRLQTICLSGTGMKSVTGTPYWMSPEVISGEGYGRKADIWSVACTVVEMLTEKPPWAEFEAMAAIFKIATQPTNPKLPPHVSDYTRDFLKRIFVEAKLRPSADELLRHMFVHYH
# ATP-sensitive inward rectifier potassium channel 10: ATP-sensitive inward rectifier potassium channel 10 (Homo sapiens, UniProt P78508)
# Sequence of UniProt P78508 (whole entry, looked up): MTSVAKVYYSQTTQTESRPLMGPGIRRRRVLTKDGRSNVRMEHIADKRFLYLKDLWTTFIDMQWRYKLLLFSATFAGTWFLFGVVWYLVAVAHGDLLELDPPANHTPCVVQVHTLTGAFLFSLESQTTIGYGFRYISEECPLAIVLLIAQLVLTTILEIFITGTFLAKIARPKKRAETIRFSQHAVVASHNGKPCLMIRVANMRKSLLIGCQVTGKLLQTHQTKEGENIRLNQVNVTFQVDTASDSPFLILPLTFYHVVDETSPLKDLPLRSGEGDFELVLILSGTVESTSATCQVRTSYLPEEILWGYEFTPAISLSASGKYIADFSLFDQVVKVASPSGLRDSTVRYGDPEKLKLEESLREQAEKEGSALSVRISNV
# Sequence of UniProt Q9HCR9 (whole entry, looked up): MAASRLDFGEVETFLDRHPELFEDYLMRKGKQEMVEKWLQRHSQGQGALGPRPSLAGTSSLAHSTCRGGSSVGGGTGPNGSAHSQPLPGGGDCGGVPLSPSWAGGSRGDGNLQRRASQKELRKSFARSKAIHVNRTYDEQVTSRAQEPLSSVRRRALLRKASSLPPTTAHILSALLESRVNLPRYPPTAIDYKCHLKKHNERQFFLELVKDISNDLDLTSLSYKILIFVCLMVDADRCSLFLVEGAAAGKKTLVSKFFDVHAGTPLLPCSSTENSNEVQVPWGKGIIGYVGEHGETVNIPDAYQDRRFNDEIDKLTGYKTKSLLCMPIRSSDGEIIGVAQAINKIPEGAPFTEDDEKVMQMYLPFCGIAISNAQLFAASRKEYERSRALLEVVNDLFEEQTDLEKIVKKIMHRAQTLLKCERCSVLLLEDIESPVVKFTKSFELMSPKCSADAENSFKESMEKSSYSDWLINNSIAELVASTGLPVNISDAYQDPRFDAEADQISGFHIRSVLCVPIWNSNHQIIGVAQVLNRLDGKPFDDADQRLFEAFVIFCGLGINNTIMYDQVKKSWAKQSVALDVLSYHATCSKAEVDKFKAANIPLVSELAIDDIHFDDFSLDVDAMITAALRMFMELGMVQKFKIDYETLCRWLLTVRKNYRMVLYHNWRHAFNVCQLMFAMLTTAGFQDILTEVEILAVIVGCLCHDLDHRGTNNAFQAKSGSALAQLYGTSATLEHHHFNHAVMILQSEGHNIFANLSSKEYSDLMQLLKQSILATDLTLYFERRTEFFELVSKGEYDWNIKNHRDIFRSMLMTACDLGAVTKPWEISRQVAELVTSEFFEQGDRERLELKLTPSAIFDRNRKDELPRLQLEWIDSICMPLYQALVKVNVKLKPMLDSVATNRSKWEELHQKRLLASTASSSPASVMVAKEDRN
# Sequence of UniProt Q16853 (whole entry, looked up): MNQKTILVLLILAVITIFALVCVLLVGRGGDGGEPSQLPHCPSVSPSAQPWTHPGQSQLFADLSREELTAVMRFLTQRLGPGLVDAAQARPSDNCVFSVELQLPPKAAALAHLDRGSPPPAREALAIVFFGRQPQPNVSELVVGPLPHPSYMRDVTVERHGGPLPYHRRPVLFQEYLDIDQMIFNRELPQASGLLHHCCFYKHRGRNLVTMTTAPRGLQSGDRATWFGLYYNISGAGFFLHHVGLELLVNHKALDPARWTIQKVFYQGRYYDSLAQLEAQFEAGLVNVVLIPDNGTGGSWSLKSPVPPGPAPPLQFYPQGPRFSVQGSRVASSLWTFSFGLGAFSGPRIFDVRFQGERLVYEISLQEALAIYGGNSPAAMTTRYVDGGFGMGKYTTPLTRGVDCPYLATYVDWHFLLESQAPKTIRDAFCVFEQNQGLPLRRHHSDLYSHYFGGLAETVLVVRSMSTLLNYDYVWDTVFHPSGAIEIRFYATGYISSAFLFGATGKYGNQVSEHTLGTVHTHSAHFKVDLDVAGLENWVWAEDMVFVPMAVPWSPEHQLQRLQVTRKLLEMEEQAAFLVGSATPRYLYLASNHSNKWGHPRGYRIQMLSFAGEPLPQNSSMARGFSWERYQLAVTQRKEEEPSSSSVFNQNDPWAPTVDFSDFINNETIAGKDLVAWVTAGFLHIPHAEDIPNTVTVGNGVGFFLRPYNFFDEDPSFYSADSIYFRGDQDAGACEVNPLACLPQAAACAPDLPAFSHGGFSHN
SMILES,target,test,test system,conditions,inhibition
COc1cc(C(=O)NS(=O)(=O)c2ccccc2C)ccc1Cc1cn(C)c2ccc(NC(=O)OC3CCCC3)cc12,"Volume-regulated anion channel subunit LRRC8C, part LRRC8A IL1 chimera (LRRC8C, Homo sapiens, UniProt Q8TDW0, C43G/S11C)","ion current, inhibitor, whole-cell patch clamp",HCT LRRC8-/- cells,"3 µM, +100 mV",9.51% and 11% and 15.2% and 6.77% and 23.8%
O=C(OC[C@H]1O[C@@H](OC(=O)c2cc(O)c(O)c(O)c2)[C@H](OC(=O)c2cc(O)c(O)c(O)c2)[C@@H](OC(=O)c2cc(O)c(O)c(O)c2)[C@@H]1OC(=O)c1cc(O)c(O)c(O)c1)c1cc(O)c(O)c(O)c1,P4HB,insulin reduction,,20 µM,inhibited
O=C1c2ccccc2CCN1CCCCN1CCN(c2cccc(Cl)c2Cl)CC1,DRD1,radioligand binding,,"concentration not given, added: [3H]SCH23390",99.8%
C#Cc1cc(-c2cc(Nc3nc(N[C@@H](C)c4ccc(F)cn4)ncc3Cl)n[nH]2)ccc1C=O,"TGFBR1 (Homo sapiens, UniProt P36897, T204D)","enzyme activity, inhibitor",,0.2 µM,17.8%
O=[N+]([O-])c1ccc(O[C@@H]2O[C@H](CO[C@@H]3O[C@H](CO)[C@H](O)[C@H](O)[C@H]3O)[C@H](O)[C@H](O)[C@H]2O)cc1,Adhesin FmlH lectin domain,"binding to desialylated mucin, ELISA competition",UPEC UTI89,100 µM,19.4 ± 1.6%
CCCCOc1c(O)cc(Br)c2c1CN1CCc3cc(OCC(F)F)c(O)cc3[C@@H]1C2,DRD1,"cAMP level, antagonist, TR-FRET",U2OS expressing human D1R,"concentration not given, added: dopamine 10 nM",95 ± 1%
CCN(O)N=Nc1ccc(S(=O)(=O)Nc2cc(C)on2)cc1,"α-glucosidase, rat intestine",enzyme activity,,"240 µg/mL, added: 4-nitrophenyl α-D-glucopyranoside",62.5 ± 0.01%
COc1ccc(S(=O)(=O)N(CC(=O)NO)CC(C)C)cc1,"MMP2 (Homo sapiens, UniProt P08253)",fluorometric,,0.01 ng/mL,35%
Clc1cncc(OC[C@H]2CN(CCN3CCc4ccccc43)CCO2)c1,DRD1,radioligand binding,,"concentration not given, added: [3H]SCH23390",44.1%
O=C(Cn1cncn1)N1CCc2onc(-c3cccc4ccccc34)c2C1,Luciferin 4-monooxygenase,"luciferase luminescence, inhibitor",cell-free,"50 µM, counter-screen",1.3%
Cc1ccc(OC[C@H]2CN(CCN3CCc4ccccc43)CCO2)cn1,HTR1E,radioligand binding,,"concentration not given, added: [3H]5-HT",-11.7%
CN1CCN(c2cc(-c3ccncc3)c(-c3ccc4ccccc4c3)nn2)CC1,"TSHR (Homo sapiens, UniProt P16473)","antagonist, FLIPR",,10 µM,20.2%
CN(Cc1ccc(F)cc1)Cc1nc(-c2ccc3c(c2)OCO3)no1,Luciferin 4-monooxygenase,"luciferase luminescence, inhibitor",cell-free,"50 µM, counter-screen",42.7%
C=CCCCCCCCCC(=O)O,Palmitoyl-protein thioesterase 1,Spectrum Collection screen,,"concentration not given, added: substrate 20 µM",62%
Cc1noc(NS(=O)(=O)c2ccc(N=NN(O)c3ccccc3)cc2)c1C,"α-glucosidase, rat intestine",enzyme activity,,"300 µg/mL, added: 4-nitrophenyl α-D-glucopyranoside",57.5 ± 0.29%
CSc1ncc(CN2CCC(Oc3ccc(C(=O)N4CCCC4)cc3)CC2)cn1,Luciferin 4-monooxygenase,"luciferase luminescence, inhibitor",cell-free,"50 µM, counter-screen",3.73%
CN(C(=O)n1cnc(-c2ccc[n+]([O-])c2)c1)C1CCCCC1,"GABRA1/GABRG2, benzodiazepine site (Bos taurus, UniProt P08219+P22300)",,,10 µM,-9.61%
Clc1cccc(OC[C@@H]2CN(CCN3CCc4ccccc43)CCO2)c1,HTR1E,radioligand binding,,"concentration not given, added: [3H]5-HT",-16.4%
O=C1C=C2CC3(O)COc4c(ccc(O)c4O)C3=C2C=C1O (centres unmarked),Luciferin 4-monooxygenase,"luciferase luminescence, inhibitor",cell-free,"50 µM, counter-screen",40.9%
NC/C(=C\F)COc1cccc(Cn2c(=S)[nH]c(=O)c3[nH]cnc32)c1,"AOC3 (Homo sapiens, UniProt Q16853)","H2O2 production, Amplex Red",,"1.111 µM, recombinant human enzyme",99.8%
O=S(=O)(Nc1nccs1)c1ccc(N=NN(O)c2ccccc2)cc1,"α-glucosidase, rat intestine",enzyme activity,,"240 µg/mL, added: 4-nitrophenyl α-D-glucopyranoside",42.5 ± 0.01%
CCOc1ccc(C2=NC3(CCN(C(C)=O)CC3)NC(c3ccccc3O)C2)cc1 (centres unmarked),Luciferin 4-monooxygenase,"luciferase luminescence, inhibitor",cell-free,"50 µM, counter-screen",12%
Cc1ccc(N(O)N=Nc2ccc(S(=O)(=O)Nc3cc(C)on3)cc2)cc1,"α-glucosidase, rat intestine",enzyme activity,,"300 µg/mL, added: 4-nitrophenyl α-D-glucopyranoside",52.5 ± 0.09%
Cc1cc(OC(C)C)ccc1C(=O)C(C)(C)NC(=O)c1sccc1C,"NADH-cytochrome c oxidoreductase (complex I-III), Botrytis cinerea",,mitochondrial fraction,concentration not given,no inhibition
CC1CCN(c2nccnc2Oc2ccc(C(=O)NCCC3=CCCCC3)cc2)CC1,Luciferin 4-monooxygenase,"luciferase luminescence, inhibitor",cell-free,"50 µM, counter-screen",1.41%
CCCN(O)N=Nc1ccc(S(=O)(=O)Nc2cc(C)on2)cc1,"α-glucosidase, rat intestine",enzyme activity,,"120 µg/mL, added: 4-nitrophenyl α-D-glucopyranoside",32.5 ± 0.12%
CCCCCC/C=C1\C=C(C(F)(F)F)c2cc3c(cc21)OCO3,P4HB,"insulin reduction, inhibitor",,"concentration not given, 37 °C, low micromolar preincubation",inhibited
COc1cc(C)c(/C=C/C(C)=C/C=C/C(C)=C/C(=O)O)c(C)c1C,Palmitoyl-protein thioesterase 1,Spectrum Collection screen,,"concentration not given, added: substrate 20 µM",65.4%
Cc1nn(-c2nc3c(F)cc(F)cc3s2)c(O)c1C(c1ccc(C(F)(F)F)cc1)c1c(C)nn(-c2nc3c(F)cc(F)cc3s2)c1O,"Cyclic GMP-AMP synthase, catalytic domain; with DNA (CGAS, Homo sapiens, UniProt Q8N884)","cGAS phase separation, inhibitor",,200 µM,98.3%
O=C1c2ccccc2CCCN1CCCCN1CCN(c2ccccn2)CC1,HTR1E,radioligand binding,,"concentration not given, added: [3H]5-HT",-8.6%
CCN(O)N=Nc1ccc(S(=O)(=O)Nc2nccs2)cc1,"α-glucosidase, rat intestine",enzyme activity,,"180 µg/mL, added: 4-nitrophenyl α-D-glucopyranoside",45 ± 4.16%
CC[C@@H]1[C@H](F)C(=O)N[C@@H]1COc1nccc2cc(C(N)=O)c(OC)cc12,MAP3K2,"ATP-site probe binding, ActivX profiling",THP-1 cell lysate,"0.01 mM, Lys1 site",-0.4%
Cc1noc(NS(=O)(=O)c2ccc(N=NN(C)O)cc2)c1C,"α-glucosidase, rat intestine",enzyme activity,,"180 µg/mL, added: 4-nitrophenyl α-D-glucopyranoside",33 ± 0.013%
CC(=O)N[C@H]1C(O)O[C@H](CO)[C@H](O)[C@@H]1O (mixture of isomers),Adhesin FmlH lectin domain,"binding to desialylated mucin, ELISA competition",UPEC UTI89,100 µM,28.5 ± 5.2%
CCCCCCCC/C=C\CCCCCCCC(=O)O.NCCO,Palmitoyl-protein thioesterase 1,Spectrum Collection screen,,"concentration not given, added: substrate 20 µM",64.3%
CCc1nn(C)c2nc(-c3ccc(C(=O)O)cc3)nc(NCc3ccc(F)cc3)c12,"PDE11A (Homo sapiens, UniProt Q9HCR9)",enzyme activity,,"10 µM, added: [3H]cAMP",59.1%
COc1cc2c(cc1OC)C(=O)N(CCCCN1CCN(c3ccccc3OC)CC1)C2,DRD1,radioligand binding,,"concentration not given, added: [3H]SCH23390",91.3%
Cn1cc(-c2cnc3ccc(NC(=O)Nc4ccc(F)c(Br)c4)cc3n2)cn1,MAP3K2,"kinase binding, KiNativ profiling, refers to: Lys1 peptide",PANC-1 lysate,5 µM,3.7%
CCC1=NOC(Cn2ncc(N3CCc4ccccc4C3)cc2=O)C1 (centres unmarked),Luciferin 4-monooxygenase,"luciferase luminescence, inhibitor",cell-free,"50 µM, counter-screen",91.3%
CC(C)c1noc2ncc(C(=O)c3ccccc3O)cc12,ATP-sensitive inward rectifier potassium channel 10,"ion current, whole-cell patch-clamp",,10 µM,4.72%
Cc1ncc([N+](=O)[O-])n1CCO,Palmitoyl-protein thioesterase 1,Spectrum Collection screen,,"concentration not given, added: substrate 20 µM",65.1%
COc1ccc(S(=O)(=O)N(CC(=O)O)Cc2ccc(CN(CC(=O)O)S(=O)(=O)c3ccc(OC)cc3)c3ccccc23)cc1,"Kelch-like ECH-associated protein 1, Kelch domain (KEAP1, Homo sapiens, UniProt Q14145)","binding, fluorescence polarization competition",,50 µM,no inhibition
O=C(NO)c1ccc(CN2CCCCc3ccccc32)c(F)c1,"OPRD1 (Homo sapiens, UniProt P41143)","radioligand binding, PDSP radioligand binding",,10 µM,16.2%
Cc1ncc([N+](=O)[O-])n1C,Palmitoyl-protein thioesterase 1,Spectrum Collection screen,,"concentration not given, added: substrate 20 µM",65.4%
c1ccc(OC[C@@H]2CN(CCN3CCc4ccccc43)CCO2)cc1,HTR1E,radioligand binding,,"concentration not given, added: [3H]5-HT",-13.8%
Cc1ccc(S(=O)(=O)Nc2ccc(C)cc2NS(=O)(=O)c2cccc(C(F)(F)F)c2)cc1,"Protein lin-28 homolog A (Mus musculus, UniProt Q8K3Y3)","RNA binding, inhibitor, EMSA",,concentration not given,inhibited
COc1ccc2c(c1)CN(CCCN1CCN(c3ccccc3OC)CC1)C2=O,DRD1,radioligand binding,,"concentration not given, added: [3H]SCH23390",54.5%
CN(O)N=Nc1ccc(S(=O)(=O)Nc2nccs2)cc1,"α-glucosidase, rat intestine",enzyme activity,,"120 µg/mL, added: 4-nitrophenyl α-D-glucopyranoside",27.5 ± 0.59%
Cc1ccc(C(=O)Nc2ccc3ccccc3c2)o1,ATP-sensitive inward rectifier potassium channel 10,"ion current, inhibitor, whole-cell patch clamp",,10 µM,2.74% and 0.82% and 0.2% and 2.8% and 1.36%
COc1ccc(F)cc1C(=O)NCc1ccc(-c2nn([C@@H](C)C(F)(F)F)c(N)c2C(N)=O)cc1,"STE20-related kinase adapter protein beta (Homo sapiens, UniProt Q9C0K7)","target engagement, competitive chemoproteomics",human PBMCs,1 µM,19.9%

# Repeated from above:
SMILES,target,test,test system,conditions,inhibition
CCC1=NOC(Cn2ncc(N3CCc4ccccc4C3)cc2=O)C1 (centres unmarked),Luciferin 4-monooxygenase,"luciferase luminescence, inhibitor",cell-free,"50 µM, counter-screen",91.3%
CC(C)c1noc2ncc(C(=O)c3ccccc3O)cc12,ATP-sensitive inward rectifier potassium channel 10,"ion current, whole-cell patch-clamp",,10 µM,4.72%
Cc1ncc([N+](=O)[O-])n1CCO,Palmitoyl-protein thioesterase 1,Spectrum Collection screen,,"concentration not given, added: substrate 20 µM",65.1%
COc1ccc(S(=O)(=O)N(CC(=O)O)Cc2ccc(CN(CC(=O)O)S(=O)(=O)c3ccc(OC)cc3)c3ccccc23)cc1,"Kelch-like ECH-associated protein 1, Kelch domain (KEAP1, Homo sapiens, UniProt Q14145)","binding, fluorescence polarization competition",,50 µM,no inhibition
